Measurements of several laboratories.
Several values in a cell are separate wells, animals, samples, runs or records. ± gives the spread as reported. Values after ≈ are worked out from the molar mass of the structure shown.
CYP1A2: Cytochrome P450 1A2 (CYP1A2, Homo sapiens, UniProt P05177)

Sequences of proteins named here, by UniProt entry; tags and fusion partners are left off. Residues count along the entry.
UniProt P05177, whole entry: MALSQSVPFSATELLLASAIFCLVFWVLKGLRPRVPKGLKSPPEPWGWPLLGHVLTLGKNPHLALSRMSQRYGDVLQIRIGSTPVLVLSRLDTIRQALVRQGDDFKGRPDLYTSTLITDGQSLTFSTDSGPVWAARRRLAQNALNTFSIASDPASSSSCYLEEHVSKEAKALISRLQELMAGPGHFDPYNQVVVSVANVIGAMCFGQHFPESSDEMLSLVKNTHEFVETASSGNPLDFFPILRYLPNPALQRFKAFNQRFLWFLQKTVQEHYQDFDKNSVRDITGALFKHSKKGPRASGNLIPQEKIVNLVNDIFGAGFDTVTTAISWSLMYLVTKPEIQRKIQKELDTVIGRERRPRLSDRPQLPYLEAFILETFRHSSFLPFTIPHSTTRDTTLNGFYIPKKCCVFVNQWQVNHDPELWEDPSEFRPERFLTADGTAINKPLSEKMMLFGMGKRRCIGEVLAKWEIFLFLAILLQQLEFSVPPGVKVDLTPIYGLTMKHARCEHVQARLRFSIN
UniProt P08684, whole entry: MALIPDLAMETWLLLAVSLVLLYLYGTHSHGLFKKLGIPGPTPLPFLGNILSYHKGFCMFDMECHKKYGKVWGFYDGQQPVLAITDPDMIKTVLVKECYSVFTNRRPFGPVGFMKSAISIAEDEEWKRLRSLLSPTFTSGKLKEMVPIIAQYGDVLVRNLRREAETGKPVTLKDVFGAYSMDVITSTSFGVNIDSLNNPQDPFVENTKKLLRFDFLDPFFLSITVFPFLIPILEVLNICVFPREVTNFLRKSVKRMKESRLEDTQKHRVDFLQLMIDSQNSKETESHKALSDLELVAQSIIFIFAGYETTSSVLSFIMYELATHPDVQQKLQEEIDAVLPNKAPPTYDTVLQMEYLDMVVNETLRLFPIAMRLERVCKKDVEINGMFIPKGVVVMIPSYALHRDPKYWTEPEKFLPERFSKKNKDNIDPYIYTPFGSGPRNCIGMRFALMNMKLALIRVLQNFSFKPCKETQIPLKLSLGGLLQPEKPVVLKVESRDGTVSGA
UniProt P35353, 24-415 limits assumed: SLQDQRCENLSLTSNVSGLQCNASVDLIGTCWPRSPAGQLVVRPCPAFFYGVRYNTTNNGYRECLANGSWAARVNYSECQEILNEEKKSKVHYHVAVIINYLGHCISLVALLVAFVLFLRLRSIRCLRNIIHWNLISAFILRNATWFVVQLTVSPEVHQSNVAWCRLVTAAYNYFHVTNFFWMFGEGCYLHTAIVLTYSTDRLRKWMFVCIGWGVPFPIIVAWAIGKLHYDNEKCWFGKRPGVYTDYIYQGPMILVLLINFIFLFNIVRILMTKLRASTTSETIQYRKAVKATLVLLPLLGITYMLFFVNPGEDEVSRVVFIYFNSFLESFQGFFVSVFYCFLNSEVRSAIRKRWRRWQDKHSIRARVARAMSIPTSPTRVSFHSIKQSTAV

COCn1cc(-c2cc([C@@H](C)NC(=O)c3cc(OCCN(C)C)ccc3C)c3ccccc3n2)cn1  viability (Vero E6 cells; 7.812 µM): 103% and 104%
COc1ccc(S(=O)(=O)N2CCCN(CC(=O)Nc3ccccc3OC)CC2)cc1  IC50 (Cytochrome P450 3A4 (CYP3A4, Homo sapiens, UniProt P08684); enzyme activity, inhibitor): 4.6 µM
CCCCCCCCCC(=O)c1cc[nH]c1  maximum non-toxic concentration (Vibrio cholerae; bacterial growth, OD600): ≤ 25 µM
[11CH3]Nc1ccc(C(=O)C2CCN(C3Cc4ccccc4CC3O)CC2)cc1 (single isomer, unassigned)  uptake (Sprague-Dawley rat, brain; 30 min): 0.272 %ID/g
COc1cccc2c(N3CCC(CCP(=O)(O)O)CC3)ncnc12  lowest trough concentration (mouse, serum; subcutaneous, 300 mg/kg daily, 24 h after dose, dosed for 6 days): 40 nM
COCCN(CCOC)c1nc(C)nc2c(-c3c(OC)cc([76Br])cc3OC)c(C)nn12  parent fraction (Corticotropin-releasing factor receptor 1 (Rattus norvegicus, UniProt P35353); TLC; rat, brain homogenate; intravenous, 1 h; relative to: total radioactivity): > 70%
O=C(NC1CCN(c2ncnc3[nH]cnc23)CC1)c1cccc(S(=O)(=O)Nc2ccc(Cl)cc2)c1  viability (A549-ACE2; 2.469 µM): 103%
CC(C)C[C@@H](NC(=O)[C@H](NC(=O)[C@H]1CCCN1)[C@H](C)O)C(=O)N[C@H](Cc1c[nH]cn1)C(=O)N[C@@H](C(=O)N[C@H](Cc1c[nH]cn1)C(=O)N[C@H](CC(N)=O)C(=O)N[C@H](CCCNC(=N)N)C(=O)N[C@H](CCCNC(=N)N)C(=O)N[C@H](CCCNC(=N)N)C(=O)N[C@H](CCCNC(=N)N)C(=O)N[C@H](CCCNC(=N)N)C(N)=O)[C@H](C)O  incidence of abnormal EEG (adverse events, phase I single ascending dose; healthy male subjects; 36 mg, grade 1): 50%
Cc1cccc2c1[nH]c1c(-c3ccc(Cl)c(Cl)c3)nc(C(=O)NCCNCCO)cc12  kinetic solubility (pH 7.4): 55.4 µM (≈ 25.3 µg/mL)
NCCNCCSc1ccccc1  solubility (shake flask; simulated intestinal fluid; 24 h, pH 6.8, 37 °C): 985 ± 40 mg/mL (≈ 5020 mM)
CC1(C)CC[C@]2(C(=O)O)CC[C@]3(C)C(=CC[C@@H]4[C@@]5(C)CC[C@H](OC(=O)NCc6ccccc6)C(C)(C)[C@@H]5CC[C@]43C)[C@@H]2C1  MRT(0-inf) (C57BL/6 mice, plasma; intraperitoneal, 85 µmol/kg): 9.22 h
O=C(NC1CCN(c2ncnc3[nH]cnc23)CC1)c1cccc(NS(=O)(=O)c2ccc([N+](=O)[O-])cc2)c1  viability (A549-ACE2; 66.67 µM): 96.3%
CNCCNC(=O)c1cc2c([nH]c3ccccc32)c(-c2cc(Cl)c(Cl)c(Cl)c2)n1  kinetic solubility (pH 7.4): 3.5 µM (≈ 1.57 µg/mL)
COc1ccc(NC(=O)CN2CCCN(S(=O)(=O)c3cccs3)CC2)c(OC)c1  IC50 (CYP1A2; enzyme inhibition, inhibitor): 8.46 µM
[2H]c1c([2H])c(S(=O)(=O)N2CCC([2H])(C(=O)Nc3ccc4cc(C(=O)O)ccc4c3)CC2)c(C([2H])([2H])[2H])c([2H])c1C([2H])([2H])[2H]  half-life (rat liver microsomes; 60 min, 37 °C): > 1 h
Cc1ccc2nc(-c3ccc4nc(-c5ccc(NC(=O)c6cccc(Cl)c6)cc5)sc4c3)sc2c1S(=O)(=O)O  solubility (PBS; pH 7.4): 0.00012 mg/mL (≈ 0.000203 mM)
O=C(NC1CCN(c2ncnc3[nH]cnc23)CC1)c1cccc(NS(=O)(=O)c2ccc(Cl)cc2)c1  viability (A549-ACE2; 2.469 µM): 95.6%
O=C(CC1CC2CCC1C2)Nc1nnc(-c2ccccc2Cl)s1 (centres unmarked)  CC50 (Vero): 9.2 to 18 µM
COc1ccc(S(=O)(=O)Nc2cccc(C(=O)NC3CCN(c4ncnc5[nH]cnc45)CC3)c2)cc1  viability (A549-ACE2; 66.67 µM): 92.5%
Cc1ccc(NC(=O)C2CC3CCC2C3)cc1 (centres unmarked)  IC50 (CYP1A2; enzyme activity, inhibitor): 10.4 µM
Cc1ccc(S(=O)(=O)Nc2cccc(C(=O)NC3CCN(c4ncnc5[nH]cnc45)CC3)c2)cc1Cl  viability (A549-ACE2; 0.2743 µM): 103%
O=C(Nc1ccccc1OS(=O)(=O)c1ccc(OC(F)(F)F)cc1)c1cnccn1  cytotoxicity (1321-N1, MCF7, HEK-293T; MTT; up to 100 µM): not toxic
CN(C(=O)Cc1ccc(Cl)c(Cl)c1)[C@@H]1CCCC[C@H]1N1CCCCCC1  intrinsic clearance (human liver microsomes; 0.5 µM, with: NADPH): 15 mL/min/g

Repeated from above:
COc1cccc2c(N3CCC(CCP(=O)(O)O)CC3)ncnc12  lowest trough concentration (mouse, serum; subcutaneous, 300 mg/kg daily, 24 h after dose, dosed for 6 days): 40 nM
COCCN(CCOC)c1nc(C)nc2c(-c3c(OC)cc([76Br])cc3OC)c(C)nn12  parent fraction (Corticotropin-releasing factor receptor 1 (Rattus norvegicus, UniProt P35353); TLC; rat, brain homogenate; intravenous, 1 h; relative to: total radioactivity): > 70%
O=C(NC1CCN(c2ncnc3[nH]cnc23)CC1)c1cccc(S(=O)(=O)Nc2ccc(Cl)cc2)c1  viability (A549-ACE2; 2.469 µM): 103%
